Results gathered from unrelated publications.
A part holds a random share of what one study measured.
Chain of UniProt Q13557 (whole entry, looked up): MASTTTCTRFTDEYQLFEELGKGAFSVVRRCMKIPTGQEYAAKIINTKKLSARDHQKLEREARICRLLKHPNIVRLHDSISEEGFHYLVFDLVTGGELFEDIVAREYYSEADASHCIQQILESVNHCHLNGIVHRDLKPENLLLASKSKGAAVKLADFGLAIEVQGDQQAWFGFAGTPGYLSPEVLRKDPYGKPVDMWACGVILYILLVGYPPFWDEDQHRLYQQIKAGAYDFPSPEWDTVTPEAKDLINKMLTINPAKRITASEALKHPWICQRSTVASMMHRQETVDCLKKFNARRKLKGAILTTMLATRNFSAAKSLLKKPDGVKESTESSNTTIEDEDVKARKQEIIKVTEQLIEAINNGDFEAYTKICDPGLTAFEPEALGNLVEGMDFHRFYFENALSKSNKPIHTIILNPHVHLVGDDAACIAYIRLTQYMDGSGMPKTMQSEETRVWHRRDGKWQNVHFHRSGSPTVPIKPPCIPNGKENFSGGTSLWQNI
Chain of UniProt Q96RR4 (whole entry, looked up): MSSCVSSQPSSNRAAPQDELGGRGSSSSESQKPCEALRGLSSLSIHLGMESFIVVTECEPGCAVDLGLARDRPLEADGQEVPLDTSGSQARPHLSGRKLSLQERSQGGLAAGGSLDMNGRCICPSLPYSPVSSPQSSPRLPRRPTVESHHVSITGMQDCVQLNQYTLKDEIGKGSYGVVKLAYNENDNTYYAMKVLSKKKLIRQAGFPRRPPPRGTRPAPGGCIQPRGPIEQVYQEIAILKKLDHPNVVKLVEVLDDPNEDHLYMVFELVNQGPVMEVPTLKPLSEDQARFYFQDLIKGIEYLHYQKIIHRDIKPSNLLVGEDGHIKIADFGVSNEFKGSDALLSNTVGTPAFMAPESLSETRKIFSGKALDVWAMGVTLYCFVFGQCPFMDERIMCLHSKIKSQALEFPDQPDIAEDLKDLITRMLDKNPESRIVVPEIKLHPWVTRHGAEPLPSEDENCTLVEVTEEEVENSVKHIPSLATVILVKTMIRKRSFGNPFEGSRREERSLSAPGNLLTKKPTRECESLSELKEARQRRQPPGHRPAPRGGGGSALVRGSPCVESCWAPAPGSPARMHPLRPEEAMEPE
Chain of UniProt Q96GD4 (whole entry, looked up): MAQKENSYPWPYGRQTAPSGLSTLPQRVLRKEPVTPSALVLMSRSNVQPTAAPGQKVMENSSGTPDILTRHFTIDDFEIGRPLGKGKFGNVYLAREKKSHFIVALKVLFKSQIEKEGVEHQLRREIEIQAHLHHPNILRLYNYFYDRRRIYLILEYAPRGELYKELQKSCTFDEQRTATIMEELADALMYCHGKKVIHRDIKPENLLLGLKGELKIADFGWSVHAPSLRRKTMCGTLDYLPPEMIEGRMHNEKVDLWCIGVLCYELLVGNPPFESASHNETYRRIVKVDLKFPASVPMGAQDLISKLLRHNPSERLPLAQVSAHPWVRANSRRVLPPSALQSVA
Chain of UniProt Q16513 (whole entry, looked up): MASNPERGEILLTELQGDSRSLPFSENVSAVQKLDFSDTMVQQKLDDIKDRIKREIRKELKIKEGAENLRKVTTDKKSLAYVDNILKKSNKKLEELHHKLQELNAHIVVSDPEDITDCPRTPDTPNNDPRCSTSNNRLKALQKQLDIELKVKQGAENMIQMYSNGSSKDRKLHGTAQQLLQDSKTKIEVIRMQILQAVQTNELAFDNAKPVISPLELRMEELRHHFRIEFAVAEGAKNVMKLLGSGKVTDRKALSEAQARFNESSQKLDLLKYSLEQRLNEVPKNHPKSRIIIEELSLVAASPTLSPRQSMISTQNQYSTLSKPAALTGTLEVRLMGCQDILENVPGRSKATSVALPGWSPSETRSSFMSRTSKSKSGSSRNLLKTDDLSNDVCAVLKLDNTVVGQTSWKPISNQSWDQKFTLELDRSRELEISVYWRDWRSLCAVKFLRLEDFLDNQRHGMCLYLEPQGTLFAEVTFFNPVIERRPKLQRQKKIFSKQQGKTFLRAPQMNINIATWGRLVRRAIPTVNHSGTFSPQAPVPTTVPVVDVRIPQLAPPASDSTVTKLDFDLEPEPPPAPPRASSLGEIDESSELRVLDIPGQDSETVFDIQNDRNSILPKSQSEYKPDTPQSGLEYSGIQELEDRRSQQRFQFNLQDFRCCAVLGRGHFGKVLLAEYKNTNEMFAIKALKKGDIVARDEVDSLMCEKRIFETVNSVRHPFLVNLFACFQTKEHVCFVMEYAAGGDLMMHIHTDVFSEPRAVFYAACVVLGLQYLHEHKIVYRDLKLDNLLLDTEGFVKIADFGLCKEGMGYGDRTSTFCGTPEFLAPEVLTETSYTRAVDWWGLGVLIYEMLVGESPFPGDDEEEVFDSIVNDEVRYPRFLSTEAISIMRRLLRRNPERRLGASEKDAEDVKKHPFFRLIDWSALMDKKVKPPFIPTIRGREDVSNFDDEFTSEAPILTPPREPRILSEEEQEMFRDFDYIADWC
Chain of UniProt P35626 (whole entry, looked up): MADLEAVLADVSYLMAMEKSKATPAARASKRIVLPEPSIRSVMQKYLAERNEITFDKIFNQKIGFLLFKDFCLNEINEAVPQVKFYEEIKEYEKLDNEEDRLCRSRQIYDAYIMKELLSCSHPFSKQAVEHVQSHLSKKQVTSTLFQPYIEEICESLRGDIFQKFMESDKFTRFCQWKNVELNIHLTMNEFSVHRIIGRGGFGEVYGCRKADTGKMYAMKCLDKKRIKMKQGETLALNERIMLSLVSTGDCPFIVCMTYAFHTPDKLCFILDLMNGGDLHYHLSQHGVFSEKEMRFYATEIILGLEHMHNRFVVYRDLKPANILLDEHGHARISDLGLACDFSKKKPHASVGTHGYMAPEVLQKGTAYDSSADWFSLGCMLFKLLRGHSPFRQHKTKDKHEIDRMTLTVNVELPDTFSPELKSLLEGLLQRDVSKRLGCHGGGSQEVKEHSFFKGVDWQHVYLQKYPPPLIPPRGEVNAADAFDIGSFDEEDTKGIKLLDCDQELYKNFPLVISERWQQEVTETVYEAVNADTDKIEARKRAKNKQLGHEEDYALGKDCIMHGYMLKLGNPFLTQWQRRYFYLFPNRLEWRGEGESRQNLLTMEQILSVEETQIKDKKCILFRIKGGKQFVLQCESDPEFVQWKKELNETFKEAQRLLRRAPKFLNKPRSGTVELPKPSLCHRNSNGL
Chain of UniProt Q9UIK4 (whole entry, looked up): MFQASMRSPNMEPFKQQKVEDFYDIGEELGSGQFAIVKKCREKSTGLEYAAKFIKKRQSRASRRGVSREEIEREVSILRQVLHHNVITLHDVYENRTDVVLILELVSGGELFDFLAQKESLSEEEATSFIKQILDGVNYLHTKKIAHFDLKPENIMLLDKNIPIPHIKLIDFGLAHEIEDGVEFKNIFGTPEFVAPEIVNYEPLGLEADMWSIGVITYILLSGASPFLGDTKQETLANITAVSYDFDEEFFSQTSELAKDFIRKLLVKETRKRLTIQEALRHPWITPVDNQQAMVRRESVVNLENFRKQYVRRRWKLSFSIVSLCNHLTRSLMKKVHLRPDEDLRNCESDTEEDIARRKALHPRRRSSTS
Chain of UniProt P05771 (whole entry, looked up): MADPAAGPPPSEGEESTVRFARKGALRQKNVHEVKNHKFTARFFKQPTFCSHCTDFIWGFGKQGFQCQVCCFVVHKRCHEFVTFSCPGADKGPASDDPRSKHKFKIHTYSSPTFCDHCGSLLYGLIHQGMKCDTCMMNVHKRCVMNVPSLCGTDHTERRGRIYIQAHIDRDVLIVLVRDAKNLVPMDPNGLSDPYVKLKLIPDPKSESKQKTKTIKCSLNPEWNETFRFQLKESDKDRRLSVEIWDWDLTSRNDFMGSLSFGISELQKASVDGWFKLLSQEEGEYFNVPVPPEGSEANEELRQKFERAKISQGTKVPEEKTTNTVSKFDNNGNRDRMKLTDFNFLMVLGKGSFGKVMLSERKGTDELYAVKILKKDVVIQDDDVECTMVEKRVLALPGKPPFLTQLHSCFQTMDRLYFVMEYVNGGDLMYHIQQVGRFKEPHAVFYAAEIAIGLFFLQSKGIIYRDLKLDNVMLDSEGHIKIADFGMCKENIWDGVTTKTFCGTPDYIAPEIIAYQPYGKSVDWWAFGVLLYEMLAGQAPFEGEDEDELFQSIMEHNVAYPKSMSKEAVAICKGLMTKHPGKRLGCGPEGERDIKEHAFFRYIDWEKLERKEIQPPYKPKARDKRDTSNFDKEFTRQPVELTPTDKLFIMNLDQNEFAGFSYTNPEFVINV

Block 1
Cell line: HuT78
Concentration: 2 µM
Time: 48 h
Baseline: untreated
`CCCCCCCCCCCCc1ccc(S(=O)(=O)Nc2nncs2)cc1` has a viability of 114%.
`Cn1ncc(Cl)c1-c1cc(C(=O)N[C@H](CN)Cc2ccc(F)c(F)c2)oc1Cl` gave a viability of 107%.
With `O=C1NC(=O)/C(=C/c2ccc(-c3ccc(F)cc3O)o2)S1` the viability was 129%.
For `C=CC(=O)Nc1ccc(CN2C(=O)N(c3cc(OC)cc(OC)c3)Cc3cnc(Nc4ccc(N5CCN(C)CC5)cc4)nc32)cc1`, the viability was 112%.

Block 2
Host: human
Matrix: microsomes or S9
Concentration: 2 µM
Time: 0.5 h
For `N#Cc1cc(-n2ccnc2-c2cc3n(n2)CCNC3)ccc1N1CCOCC1`, the remaining compound was 45%.
`C(=C\c1ccccc1)/CN1CCN(c2cnc3ccccc3n2)CC1` gave a remaining compound of over 100%.
With `CC(C)(C)n1cc(/C=C/c2ncc(Br)s2)nn1` the remaining compound was 90.1%.
`COC(=O)c1ccc(-c2noc(C(C)C)n2)cc1Cl` has a remaining compound of 0%.
The remaining compound of `CC1CN(C)C(c2ccccc2)C(C)C12NC(=O)N=C2O` (stereo not drawn) is reported as 60.3%.
For `CN1C(=O)c2ccccc2C(C(=O)Nc2nc3ccccc3[nH]2)C1c1ccccc1` (stereo not drawn), the remaining compound was 61.2%.
With `COCCN(C)S(=O)(=O)c1cc2c(cc1Oc1ccc(Cl)cc1)Oc1ccc(C)cc1NC2=O` the remaining compound was 0.464%.
`Cc1c(Br)c(-c2nc3c4ccccc4ncn3n2)nn1C` gave a remaining compound of 8.36%.
`COC(=O)c1c(C(=O)OC)c(-c2ccc(N)cc2)n2c1CCC2` has a remaining compound of 0.0682%.
The remaining compound of `O=c1c2cc3c(=O)n(-c4cc(Cl)cc(Cl)c4)ccc3nc2ccn1CCCO` is reported as 98%.
`O=C(c1ccc(=O)[nH]c1)N1CCN(c2ncc(Cl)cn2)CC1` has a remaining compound of over 100%.

Block 3
SMILES: Nc1cnc(N2CCc3cc(S(=O)(=O)Nc4c(F)cc(Cl)cc4F)cc(N4CCCC4=O)c32)nc1
Concentration: 1 µM
The remaining binding was 100% (SIK1 (Homo sapiens, UniProt P57059); competition binding).
WEE2 (Homo sapiens, UniProt P0C1S8); cell-free assay, competition with immobilised ligand — remaining binding: 93%.
ROCK2 (Homo sapiens, UniProt O75116); cell-free assay, competition with immobilised ligand — remaining binding: 100%.
CAMK2D (Homo sapiens, UniProt Q13557); cell-free assay, competition with immobilised ligand — remaining binding: 100%.
FLT1 (Homo sapiens, UniProt P17948); cell-free assay, competition with immobilised ligand — remaining binding: 93%.
The remaining binding was 100% (RIOK3 (Homo sapiens, UniProt O14730); cell-free assay, competition with immobilised ligand).
It gave 98% for remaining binding (Aurora kinase B (AURKB, Homo sapiens, UniProt Q96GD4); cell-free assay, competition with immobilised ligand).
The remaining binding was 96% (NEK7 (Homo sapiens, UniProt Q8TDX7); cell-free assay, competition with immobilised ligand).
LTK (Homo sapiens, UniProt P29376); cell-free assay, competition with immobilised ligand — remaining binding: 100%.
It gave 100% for remaining binding (FLT3 (Homo sapiens, UniProt P36888, D835V); cell-free assay, competition with immobilised ligand).
EGFR (Homo sapiens, UniProt P00533, L858R/T790M); cell-free assay, competition with immobilised ligand — remaining binding: 77%.
The remaining binding was 100% (CDK14 (Homo sapiens, UniProt O94921); cell-free assay, competition with immobilised ligand).
It gave 95% for remaining binding (ABL2 (Homo sapiens, UniProt P42684); cell-free assay, competition with immobilised ligand).
For PKN2 (Homo sapiens, UniProt Q16513); cell-free assay, competition with immobilised ligand: remaining binding read 100%.
The remaining binding was 100% (Tyrosine-protein kinase JAK3, JH1 (JAK3, Homo sapiens, UniProt P52333); cell-free assay, competition with immobilised ligand).
EIF2AK2 (Homo sapiens, UniProt P19525); binding, competition with immobilised ligand — remaining binding: 41%.
It gave 100% for remaining binding (VRK2 (Homo sapiens, UniProt Q86Y07); cell-free assay, competition with immobilised ligand).
For STK39 (Homo sapiens, UniProt Q9UEW8); cell-free assay, competition with immobilised ligand: remaining binding read 100%.
The remaining binding was 100% (NEK6 (Homo sapiens, UniProt Q9HC98); cell-free assay, competition with immobilised ligand).

Block 4
SMILES: O=C1NC(=O)/C(=C/c2ccc3c(c2)OC(F)(F)O3)S1
Effect on: enzyme activity
Action: inhibitor
Concentration: 0.5 µM
Baseline: control
The remaining activity was 97.1% (CAMK2D (Homo sapiens, UniProt Q13557)).
The remaining activity was 101% (PRKACA (Homo sapiens, UniProt P17612)).
For NEK2 (Homo sapiens, UniProt P51955): remaining activity read 98.9%.
The remaining activity was 97.1% (OXSR1 (Homo sapiens, UniProt O95747)).
The remaining activity was 106% (PRKCA (Homo sapiens, UniProt P17252)).
MAP3K3 (Homo sapiens, UniProt Q99759) — remaining activity: 103%.
For TGFBR2 (Homo sapiens, UniProt P37173): remaining activity read 107%.
STK10 (Homo sapiens, UniProt O94804) — remaining activity: 98.6%.
The remaining activity was 89.7% (Cyclin-dependent kinase 5, with p25 (CDK5, Homo sapiens, UniProt Q00535)).
It gave 96.1% for remaining activity (IKBKB (Homo sapiens, UniProt O14920)).
For Tyrosine-protein kinase Lyn, isoform B (LYN, Homo sapiens, UniProt P07948): remaining activity read 98.1%.
For DAPK2 (Homo sapiens, UniProt Q9UIK4): remaining activity read 105%.
For cGMP-dependent protein kinase 1, isoform beta (PRKG1, Homo sapiens, UniProt Q13976): remaining activity read 109%.
STK11 (Homo sapiens, UniProt Q15831) — remaining activity: 96.9%.
GRK3 (Homo sapiens, UniProt P35626) — remaining activity: 102%.
CAMKK2 (Homo sapiens, UniProt Q96RR4) — remaining activity: 82.9%.
It gave 120% for remaining activity (DAPK1 (Homo sapiens, UniProt P53355)).
The remaining activity was 97.7% (Protein kinase C beta type, isoform beta-I (PRKCB, Homo sapiens, UniProt P05771)).
It gave 97.1% for remaining activity (Cyclin-dependent kinase 4, with cyclin D1 (CDK4, Homo sapiens, UniProt P11802)).
It gave 97.9% for remaining activity (CHEK2 (Homo sapiens, UniProt O96017)).
It gave 101% for remaining activity (IKBKE (Homo sapiens, UniProt Q14164)).
It gave 110% for remaining activity (STK39 (Homo sapiens, UniProt Q9UEW8)).
The remaining activity was 90.9% (MAPK9 (Homo sapiens, UniProt P45984)).

Some of these lines once more (block 2):
With `CC(C)(C)n1cc(/C=C/c2ncc(Br)s2)nn1` the remaining compound was 90.1%.
`COC(=O)c1ccc(-c2noc(C(C)C)n2)cc1Cl` has a remaining compound of 0%.
The remaining compound of `CC1CN(C)C(c2ccccc2)C(C)C12NC(=O)N=C2O` (stereo not drawn) is reported as 60.3%.
For `CN1C(=O)c2ccccc2C(C(=O)Nc2nc3ccccc3[nH]2)C1c1ccccc1` (stereo not drawn), the remaining compound was 61.2%.
With `COCCN(C)S(=O)(=O)c1cc2c(cc1Oc1ccc(Cl)cc1)Oc1ccc(C)cc1NC2=O` the remaining compound was 0.464%.
`Cc1c(Br)c(-c2nc3c4ccccc4ncn3n2)nn1C` gave a remaining compound of 8.36%.
`COC(=O)c1c(C(=O)OC)c(-c2ccc(N)cc2)n2c1CCC2` has a remaining compound of 0.0682%.
The remaining compound of `O=c1c2cc3c(=O)n(-c4cc(Cl)cc(Cl)c4)ccc3nc2ccn1CCCO` is reported as 98%.
